Measured values of several laboratories.
Numbers after ± are the reported error.
Chain of UniProt Q9NPD5 (whole entry, looked up): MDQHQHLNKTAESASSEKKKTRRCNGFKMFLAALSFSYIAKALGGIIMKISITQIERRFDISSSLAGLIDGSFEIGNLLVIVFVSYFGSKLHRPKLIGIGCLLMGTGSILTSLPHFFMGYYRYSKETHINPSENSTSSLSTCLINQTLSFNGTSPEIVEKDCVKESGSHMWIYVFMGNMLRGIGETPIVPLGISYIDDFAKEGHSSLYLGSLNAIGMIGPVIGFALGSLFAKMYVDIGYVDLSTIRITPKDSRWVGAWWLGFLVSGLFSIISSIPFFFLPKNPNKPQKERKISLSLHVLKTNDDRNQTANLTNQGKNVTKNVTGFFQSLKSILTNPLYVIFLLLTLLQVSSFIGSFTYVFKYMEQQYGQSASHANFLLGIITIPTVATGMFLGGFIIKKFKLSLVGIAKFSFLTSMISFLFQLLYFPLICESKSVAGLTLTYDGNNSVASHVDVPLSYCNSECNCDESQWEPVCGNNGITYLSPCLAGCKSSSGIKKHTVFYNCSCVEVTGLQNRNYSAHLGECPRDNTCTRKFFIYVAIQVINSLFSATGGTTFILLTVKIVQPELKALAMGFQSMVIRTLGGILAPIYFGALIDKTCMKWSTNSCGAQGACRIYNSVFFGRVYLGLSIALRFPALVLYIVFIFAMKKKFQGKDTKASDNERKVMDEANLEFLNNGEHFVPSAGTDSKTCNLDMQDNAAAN

| SMILES | target or system | assay | test system | conditions | how to read | endpoint | result |
| --- | --- | --- | --- | --- | --- | --- | --- |
| CN[C@@](C)(C[18F])C(=O)O | A549 tumour model | – | host not given, bone | 15 min, tumour-bearing | – | tracer uptake | 2.3 %ID/g |
| N[C@@]1(c2ccccc2Cl)C[C@@H](O)CCC1=O | – | – | male CD-1 mice, plasma | intraperitoneal, 5 mg/kg | – | dose-normalized Cmax | 640 ± 24.7 ng/mL per mg/kg |
| CN1CC[C@]23c4c5ccc(O)c4O[C@H]2[C@@H](O[C@@H]2O[C@H](C(=O)O)[C@@H](O)[C@H](O)[C@H]2O)C=C[C@H]3[C@H]1C5 | MDCK II | – | – | 10.0 µg/mL, 100 min, Hanks buffer | – | Papp | 3.06 ± 0.16 ×10⁻⁶ cm/s |
| [123I]c1cncc(OC[C@@H]2CCN2)c1 | – | SPECT | human, head of caudate nucleus | intravenous bolus, 2.1 mCi | reference: tissue over plasma | tissue/plasma ratio | 14 |
| C[C@H](Cn1cnc2c(N)ncnc21)OCP(=O)(O)O | hCMEC/D3 | – | – | 10 µM, 1 h, 37 °C, 3-drug cART combination | – | intracellular accumulation | 5.15 ± 1.11 pmol/mg protein |
| O=C1OC(c2ccc(O)c(S(=O)(=O)O)c2)(c2ccc(O)c(S(=O)(=O)O)c2)c2c(Br)c(Br)c(Br)c(Br)c21 | Solute carrier organic anion transporter family member 1B3 (SLCO1B3, Homo sapiens, UniProt Q9NPD5) | – | human sandwich-cultured hepatocytes | 100 µM, 1 h pre-incubation then washout | reference: vehicle | [3H]CCK-8 accumulation | 0.13 ± 0.01 fold |
| C=C1C[C@@H]2[C@H](CC[C@]3(C)C(=O)CC[C@@H]23)[C@@]2(C)C=CC(=O)C=C12 | – | LC-MS/MS | postmenopausal breast cancer women, plasma | oral, 25 mg/day, 2 h, AKR7A2 A142T homozygous wild-type | – | median plasma concentration | 7.7 ng/mL |
| CSCC[C@@H]1NC(=O)[C@H](CC(=O)O)NC(=O)CNC(=O)[C@H](CCCNC(=N)N)NC(=O)[C@H](C)NC(=O)[C@H](CCC(=O)O)NC(=O)[C@H](CCCNC(=N)N)NC(=O)[C@@H]2CSSC[C@@H]3NC(=O)[C@H](CO)NC(=O)[C@H]([C@@H](C)O)NC(=O)[C@@H]4CCCN4C(=O)[C@H](C)NC(=O)[C@H](Cc4c[nH]c5ccccc45)NC(=O)[C@H](CC(=O)O)NC(=O)CNC(=O)[C@H](CCCNC(=N)N)NC(=O)CNC(=O)[C@H](CCC(N)=O)NC(=O)[C@@H]4CCCN4C(=O)[C@@H](NC(=O)CNC(=O)C(C)F)CSSC[C@H](NC(=O)CNC(=O)[C@H](C)NC(=O)[C@H](CC(C)C)NC(=O)[C@H](CSSC[C@@H](C(=O)NCC(N)=O)NC(=O)[C@H]([C@@H](C)O)NC(=O)[C@H](CCCNC(=N)N)NC(=O)[C@@H]4CCCN4C1=O)NC(=O)[C@H](CC(=O)O)NC(=O)[C@H](CO)NC(=O)[C@H](CC(=O)O)NC(=O)[C@H](CCC(N)=O)NC(=O)[C@H](CO)NC3=O)C(=O)N[C@@H](C(C)C)C(=O)N2 (some centres unmarked) [fluorine-18 labelled] | – | – | nude mice U-87 MG xenograft, muscle | intravenous, 1 h | – | tissue uptake | 0.22 ± 0.05 %ID/g |
| C[C@H]1CNCCc2ccc(Cl)cc21 | – | – | Sprague-Dawley rat, male, plasma | subcutaneous, 3 mg/kg, 15 min | – | plasma concentration | 99.2 ± 16 ng/mL |
| COc1ccc2c(c1)[C@]13CCCC[C@@H]1[C@H](C2)N(C)CC3 | – | – | Wistar rat, both sexes, plasma | oral, 5 mg/kg, 2 h after pretreatment, added: single TCE 100 mg/kg | – | MRT(0-inf) | 4.1 ± 0.49 h |
| O=[N+]([O-])NC1=NCCN1Cc1ccc(Cl)nc1 | Folsomia candida | reproduction, OECD 232 | LUFA 2.2 soil | 28 days | – | EC20 | 0.15 mg/kg dry soil |
